Results pooled from the literature.
Every numbered part comes from another study and shows a few of its results, in no order. Positions count from the first letter of the parent shown.

Sample 1
Target: HLA class I histocompatibility antigen, A alpha chain, allele A*80:01 (Homo sapiens, UniProt P04439)
Read-out: peptide-MHC binding
Form: peptide
Concentration: concentration not given
`MFWKLPPWL`: binding “inactive”.
`EILWDVIPF` — result for binding: “inactive”.
For `LVGNTLTTC`, binding read “inactive”.
`QLSLKMLSL` — result for binding: “inactive”.
`YQTYVSPGA` — result for binding: “inactive”.

Sample 2
Target: UBE2A UBC core domain (UniProt P49459)
UniProt P49459, sequence (whole entry, looked up): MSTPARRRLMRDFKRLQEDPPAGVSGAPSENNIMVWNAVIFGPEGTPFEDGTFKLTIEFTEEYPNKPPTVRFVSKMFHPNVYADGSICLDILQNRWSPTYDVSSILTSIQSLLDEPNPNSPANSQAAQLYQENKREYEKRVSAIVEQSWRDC
Technique: yeast two-hybrid
Medium: yeast
Setting: mostly zero background
Relative to: not given
Direction: higher = stronger interaction
B1: ZNF598 RING domain (UniProt Q86UK7); chain AAAPERGGGSCVLCCGDLEATALGRCDHPVCYRCSTKMRVLCEQRYCAVCREELRQVVFGK
B2: TRIM72 RING domain (UniProt Q6ZMU5); chain APGLLHQELSCPLCLQLFDAPVTAECGHSFCRACLGRVAGEPAADGTVLCPCCQAPTRPQALST
For `QLQDIKEQTMCPVCLDRLKNMIFLCGHGTCQLCGDRMSECPICRKAIERRILLY (MIB1 RING domain (UniProt Q86YT6))`, “lacZ reporter activity” read 0.
`B1 (ZNF598 RING domain)`: “lacZ reporter activity” 0.
`EDEVSDNSAECVVCLSDVRDTLILPCRHLCLCNTCADTLRYQANNCPICRLPFRALLQIR (RNF157 RING domain (UniProt Q96PX1))`: “lacZ reporter activity” 0.
`B2 (TRIM72 RING domain)`: “lacZ reporter activity” 0.

Sample 3
Target: CCNB3, cyclin fold, Cln2 fusion (human)
Technique: yeast growth competition, sequencing
Medium: yeast
Setting: strong parent motif
Relative to: not given
Direction: higher = stronger binding
Parent: viral docking peptide; YKVKRRLVFGADD
`YKVKRRLVFRADD [G10R]` — result for “normalised enrichment score”: 1.26.
Under “normalised enrichment score”, `YKVKRRPVFGADD [L7P]` is recorded as 0.0594.
`YKVKRQLVFGADD [R6Q]` — result for “normalised enrichment score”: 0.303.
For `YKVKRRLVFGPDD [A11P]`, “normalised enrichment score” read 2.64.
`YKVKRRMVFGADD [L7M]` — result for “normalised enrichment score”: 0.0924.
Under “normalised enrichment score”, `YKNKRRLVFGADD [V3N]` is recorded as 0.28.
For `YKLKRRLVFGADD [V3L]`, “normalised enrichment score” read 0.61.
`YKVKRRLVFGSDD [A11S]`: “normalised enrichment score” 2.14.
`YKVKRILVFGADD [R6I]`: “normalised enrichment score” 1.74.
For `YKVKPRLVFGADD [R5P]`, “normalised enrichment score” read 0.0265.
`YKVKRRLVFGAMD [D12M]`: “normalised enrichment score” 2.02.
`YKVKRRGVFGADD [L7G]`: “normalised enrichment score” -0.0134.
`YKVKRRLVFQADD [G10Q]`: “normalised enrichment score” 1.55.
`YKVKRRLVFGAQD [D12Q]` — result for “normalised enrichment score”: 1.73.
`YKVKRRLVFGACD [D12C]`: “normalised enrichment score” 1.6.

Sample 4
Variant: N77Q
Target: ABI1, truncated, D143A, DHFR fusion (Arabidopsis thaliana)
Technique: DHFR PCA, deep sequencing
Medium: yeast
Setting: methotrexate growth selection, single substitutions
Relative to: wild-type fitted maximum
Direction: higher = stronger binding
Parent: PYL1, truncated, DHFR fusion (Arabidopsis thaliana); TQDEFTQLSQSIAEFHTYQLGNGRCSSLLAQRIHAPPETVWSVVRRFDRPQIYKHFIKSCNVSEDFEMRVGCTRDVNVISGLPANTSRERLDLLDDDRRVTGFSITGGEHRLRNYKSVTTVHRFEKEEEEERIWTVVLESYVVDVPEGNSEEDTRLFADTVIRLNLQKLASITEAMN; partner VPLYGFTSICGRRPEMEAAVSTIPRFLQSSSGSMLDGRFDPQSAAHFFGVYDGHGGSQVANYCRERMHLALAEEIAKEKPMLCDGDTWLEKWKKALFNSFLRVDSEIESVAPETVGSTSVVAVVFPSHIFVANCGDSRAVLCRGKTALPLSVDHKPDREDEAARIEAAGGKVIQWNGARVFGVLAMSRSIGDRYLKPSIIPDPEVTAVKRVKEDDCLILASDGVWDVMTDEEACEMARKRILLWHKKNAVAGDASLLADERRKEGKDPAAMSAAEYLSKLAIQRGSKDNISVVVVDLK
For added: (+)-ABA 710 µM: “relative binding score” read 101%.
It gave 94.3% for “relative binding score” (added: (+)-ABA 58 µM).
It gave 89.1% for “relative binding score” (added: (+)-ABA 4.8 µM).
It gave 59.5% for “relative binding score” (added: (+)-ABA 0 µM).
For added: (+)-ABA 0.0091 µM: “relative binding score” read 62.6%.
added: (+)-ABA 2500 µM — “relative binding score”: 98.1%.

Excerpt of the above (sample 2):
For `QLQDIKEQTMCPVCLDRLKNMIFLCGHGTCQLCGDRMSECPICRKAIERRILLY (MIB1 RING domain (UniProt Q86YT6))`, “lacZ reporter activity” read 0.
`B1 (ZNF598 RING domain)`: “lacZ reporter activity” 0.
`EDEVSDNSAECVVCLSDVRDTLILPCRHLCLCNTCADTLRYQANNCPICRLPFRALLQIR (RNF157 RING domain (UniProt Q96PX1))`: “lacZ reporter activity” 0.
